Results gathered from unrelated publications.
Numbered parts are unrelated; each lists some results of a single study. Substitutions count along the parent as printed.

Set 1 — target: CCNE2, cyclin fold, Cln2 fusion (human); method: yeast growth competition, sequencing; sample: yeast; setting: weak parent motif; baseline: not given; direction: higher = stronger binding; endpoint: normalised enrichment score
Starting sequence: PKN2 docking peptide (human); VSAVQKLDFSDTM
Change = VSAVQELDFSDTM [K6E]; value = -0.208
Change = VSAVQSLDFSDTM [K6S]; value = 0.176
Change = VSAVQKLDWSDTM [F9W]; value = -0.357
Change = VVAVQKLDFSDTM [S2V]; value = 0.069
Change = VSAVQMLDFSDTM [K6M]; value = 0.403
Change = VGAVQKLDFSDTM [S2G]; value = 0.171
Change = VSAVQKLDFSDRM [T12R]; value = 0.286
Change = VSAVQFLDFSDTM [K6F]; value = -0.151
Change = VSAVQALDFSDTM [K6A]; value = 0.208
Change = VSAVQKLDFSGTM [D11G]; value = 0.706
Change = VSEVQKLDFSDTM [A3E]; value = -0.297
Change = VPAVQKLDFSDTM [S2P]; value = -0.0347
Change = VSAVQKLDFSDTG [M13G]; value = -0.0305
Change = VSAVQKTDFSDTM [L7T]; value = -0.104

Set 2 — method: RNA Bind-n-Seq; molecule type: RNA; sample: in vitro; concentration: not given; baseline: input RNA pool; direction: higher = stronger binding; endpoint: bound/input enrichment
Target: RING finger protein unkempt homolog, zinc fingers 1-6, GST-SBP tag (UNK, Homo sapiens, UniProt Q9C0B0, residues 30-357)
Setting: RNA with constant flanks, human and mouse sites, ends assumed
All sequences stand within: GGGAGUUCUACAGUCCGACGAUC … CAACAGAGGAUUGAGCAUCA
Residues (chain): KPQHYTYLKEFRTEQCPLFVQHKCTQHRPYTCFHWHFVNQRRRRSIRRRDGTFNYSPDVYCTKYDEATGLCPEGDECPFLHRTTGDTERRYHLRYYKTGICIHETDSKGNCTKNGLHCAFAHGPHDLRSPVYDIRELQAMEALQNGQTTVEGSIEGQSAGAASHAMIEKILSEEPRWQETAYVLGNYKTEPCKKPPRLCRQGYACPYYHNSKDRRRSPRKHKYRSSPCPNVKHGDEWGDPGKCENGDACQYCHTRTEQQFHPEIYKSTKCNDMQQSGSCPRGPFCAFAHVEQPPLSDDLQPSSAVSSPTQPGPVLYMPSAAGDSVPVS
Oligonucleotide = UUCUCCACUUUUUAUUGAUGAUUUAAAACACUCUAGUCUUCCCCUCAAAUCAUGCAUGCAAAUAGGAGGACAGUGGUGGUGACUCAACUGGAUACAGGUGCUCAAUAGUCAGGCUUGAUA; value = 0.484 ratio
Oligonucleotide = ACUACCACAAGGGGACAUGAAGCAGCUGACAGAAGACACGAGGCUACAACUCUGCAAACUGCUGGAAAUUCCUGAUCCAGACAAAAACUGGGCCACUCUGGCACAGAAGUUGGGUCUGGG; value = 0.11 ratio
Oligonucleotide = GUAUGGUAUAUAUGGUAUGUAUACCAUGUACACACGUUACAUUGAGUAUGAAUGACUGUGGUUGGAAACACACACACACACUCAAGUCUGUAAAUAUCCUUCCUCACUGAAACCUGUGCU; value = 0.0916 ratio
Oligonucleotide = GCUGGAGACUGGAAGUGUCCUAAUCCUACAUGUGAGAACAUGAACUUCUCUUGGAGAAAUGAAUGCAACCAGUGUAAGGCACCUAAGCCAGAUGGCCCAGGAGGGGGACCAGGAGGCUCU; value = 0.123 ratio
Oligonucleotide = UAAGCAUAUUAACAUUUUUAAGCAAAAGAUACGUUAACAGUGACCUUUGGUUAUCCACAGUAGCAAGAGUAAAGCACAGAUCAUUGAAAUCCAUAGAUAAUCAGUGAAUCAACUUUCCUA; value = 0.159 ratio
Oligonucleotide = UUGUGUAGAGCCCAACACGAACUUCACUUCCAAGCUGCCACCUAUCUCUGCCUUUUGAGUAGCAUCCGGCAACAUGUAGCCCUUCAUCAGGAAUUUCAUGGCAAGGGUGAGCGUUCAGUG; value = 0.207 ratio

Set 3 — method: RNA Bind-n-Seq; molecule type: RNA; sample: in vitro; concentration: 200 nM; setting: whole 134-nt RNA, ends assumed; added: 150 mM KCl; baseline: input library; direction: higher = stronger binding; endpoint: log2 enrichment
Target: Ras GTPase-activating protein-binding protein 1, full length (G3BP1, Homo sapiens, UniProt Q13283)
Sequence of UniProt Q13283 (whole entry, looked up): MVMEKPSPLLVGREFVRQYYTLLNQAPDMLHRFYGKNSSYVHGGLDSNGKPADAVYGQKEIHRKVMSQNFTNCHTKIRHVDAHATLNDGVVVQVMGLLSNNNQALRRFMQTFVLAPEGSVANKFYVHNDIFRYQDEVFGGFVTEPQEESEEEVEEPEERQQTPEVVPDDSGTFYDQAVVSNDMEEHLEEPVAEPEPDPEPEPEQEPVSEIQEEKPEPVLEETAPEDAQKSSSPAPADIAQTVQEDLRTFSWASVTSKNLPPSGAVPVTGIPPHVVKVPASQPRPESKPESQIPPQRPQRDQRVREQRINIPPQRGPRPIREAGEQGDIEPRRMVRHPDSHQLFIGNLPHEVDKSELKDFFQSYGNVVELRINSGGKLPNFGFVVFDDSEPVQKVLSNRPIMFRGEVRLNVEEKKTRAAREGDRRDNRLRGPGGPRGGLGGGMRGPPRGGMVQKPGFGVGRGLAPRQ
All sequences stand within: GGGAGUUCUACAGUCCGACGAUC … UGGAAUUCUCGGGUGUCAAGG
Oligonucleotide = UAACUUUAGAAGAGGAUCUGAUGGAUAUGGCAGUGGACGUGGAUUUGGGGAUGGCUAUAAUGGGUAUGGAGGAGGACCUGGAGGUGGCAA; value = 0.418
Oligonucleotide = AGUCCUGUGCUACACAUCGUAUGUACCGAAUCGGGUUUGGGAAAAAGGGUUUUUGGGAAAGUAUUAUGUUACGCCGUUCGGAUCUGCACU; value = -0.101
Oligonucleotide = CUGUGCUACACAUCGUAUGUACCGAAUCGGGGUUUUUUUGGUUUUUUUGGUUUUUUUGGGGAAAGUAUUAUGUUACGCCGUUCGGAUCUG; value = -1.01
Oligonucleotide = GCAGGAAGUAAAAACAAAUGGAAAGGCUUCGGAUAGUGGCAGGGGUGGGGGUUGCUAAGGAAAGGGUGGGAUGGGAGUGGGUAAAGAGUU; value = 0.537
Oligonucleotide = UGGGAGGUGGAUUUUGUUUAUUUUUUUAGCUCAUUUCCAGGGGUCGGAAUUUUUUUUUAAUAUGUGUCAUGAAUAAAGUUGUUUUUGAAA; value = 0.00631
Oligonucleotide = CACAGACAACACGCACCCACACAGACACAGAGGGACGGGGUUGGGAUGGGGACAGGGUGCACAGCAGGGCGGGGUAGGACCCCAGCCCCU; value = 1.98

Set 4 — method: protein-binding microarray; molecule type: double-stranded DNA, one strand shown; sample: in vitro; concentration: 2540 nM top; setting: 60-bp whole probe; added: salmon DNA 0.4 mg/ml; baseline: random background probes; direction: higher = stronger binding; endpoint: fitted relative affinity; all sequences stand within: GCCTAGCAC … GTCTTGATTCGCTTGACGCTGCTG
Target: Interferon regulatory factor 3, full length, phosphomimetic (IRF3, Homo sapiens, UniProt Q14653, residues 1-427, S386D/S396D/S398D/S402D/T404D/S405D)
Target sequence (chain): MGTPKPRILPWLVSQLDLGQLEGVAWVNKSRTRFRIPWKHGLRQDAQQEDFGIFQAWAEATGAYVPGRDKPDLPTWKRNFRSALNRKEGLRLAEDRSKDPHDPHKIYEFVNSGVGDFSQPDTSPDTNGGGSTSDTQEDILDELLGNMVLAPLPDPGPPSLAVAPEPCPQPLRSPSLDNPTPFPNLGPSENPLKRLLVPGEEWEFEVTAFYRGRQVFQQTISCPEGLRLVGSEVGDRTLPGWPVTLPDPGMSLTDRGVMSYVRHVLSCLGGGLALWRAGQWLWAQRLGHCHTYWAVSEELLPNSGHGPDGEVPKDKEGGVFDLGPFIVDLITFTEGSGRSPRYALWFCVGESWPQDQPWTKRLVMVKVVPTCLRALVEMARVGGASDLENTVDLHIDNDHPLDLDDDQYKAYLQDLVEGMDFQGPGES
Oligonucleotide = TTCTTTATGCACTCTCTACATGTGCTA; value = 0.874 z-score
Oligonucleotide = GACGGCATCGGTTTCGGGACGTGCTAG; value = 2.56 z-score
Oligonucleotide = TTAGATTCCAGTTTCGATTTGTGCTAG; value = 6.38 z-score
Oligonucleotide = TCTGTTTTTGCTTTCCTTCAGTGCTAG; value = 2.86 z-score
Oligonucleotide = GACGCTTTCAGACTGGAGACGTGCTAG; value = 0.803 z-score
Oligonucleotide = TTAGATTTCGGATTTCGATTAGTGCTA; value = 4.61 z-score
Oligonucleotide = TTAGGTTACGACTTTCGGTTAGTGCTA; value = 1.83 z-score
Oligonucleotide = TGAAAACTAAGTTTATTAGAGTGCTAG; value = -0.0711 z-score
Oligonucleotide = TCAACTTGTCTTTTCACACTGTGCTAG; value = 1.21 z-score
Oligonucleotide = GCCGGTTTCCTTCTCCTGACGTGCTAG; value = 10.2 z-score
Oligonucleotide = GACTGTATCGGACTGGGGACGTGCTAG; value = 1.35 z-score
Oligonucleotide = GACGATCTCAGTATCCAGACGTGCTAG; value = 1.49 z-score
Oligonucleotide = TTAGGCATCCTTCTCCTTTAGTGCTAG; value = 1.19 z-score
Oligonucleotide = GACGATAGCAGTATCGAGACGTGCTAG; value = -0.148 z-score

For quick reference, copied from above (set 4):
Oligonucleotide = TTAGATTCCAGTTTCGATTTGTGCTAG; value = 6.38 z-score
Oligonucleotide = TTAGATTTCGGATTTCGATTAGTGCTA; value = 4.61 z-score
Oligonucleotide = TTCTTTATGCACTCTCTACATGTGCTA; value = 0.874 z-score
Oligonucleotide = GCCGGTTTCCTTCTCCTGACGTGCTAG; value = 10.2 z-score
Oligonucleotide = GACGCTTTCAGACTGGAGACGTGCTAG; value = 0.803 z-score
